Experimental data of several laboratories.
Parts stem from different laboratories: compare values within a part only.

Block 1
Target: Interferon regulatory factor 7, full length, phosphomimetic (IRF7, Homo sapiens, UniProt Q92985, residues 1-503, S471D/S472D/S475D/S476D/S477D/S483D/S484D/S487D)
Technique: protein-binding microarray
Form: double-stranded DNA, one strand shown
Medium: in vitro
Concentration: 2200 nM top
Setting: 60-bp whole probe
Added: salmon DNA 0.4 mg/ml
Reference: random background probes
Direction: higher = stronger binding
Constant ends, left off below: GCCTAGCAC … GTCTTGATTCGCTTGACGCTGCTG
Residues (chain): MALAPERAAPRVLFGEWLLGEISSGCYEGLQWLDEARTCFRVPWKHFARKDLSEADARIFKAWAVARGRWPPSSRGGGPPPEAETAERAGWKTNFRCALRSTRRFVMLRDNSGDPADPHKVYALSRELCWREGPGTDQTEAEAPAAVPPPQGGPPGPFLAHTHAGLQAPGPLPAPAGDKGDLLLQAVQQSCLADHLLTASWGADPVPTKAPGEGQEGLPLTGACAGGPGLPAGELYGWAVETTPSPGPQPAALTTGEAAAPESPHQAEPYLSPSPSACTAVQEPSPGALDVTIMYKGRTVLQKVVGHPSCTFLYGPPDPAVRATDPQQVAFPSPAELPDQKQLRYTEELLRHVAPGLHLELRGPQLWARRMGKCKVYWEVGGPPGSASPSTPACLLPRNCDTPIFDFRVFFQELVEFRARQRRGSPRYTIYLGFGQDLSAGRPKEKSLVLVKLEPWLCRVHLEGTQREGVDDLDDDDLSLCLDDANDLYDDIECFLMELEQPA
Sequence | fitted relative affinity [z-score]
GACGATATTGGGACTGGAGACGTGCTA | -0.291
TTTCTAATGTTTTTTAAAGTGTGCTAG | 1.44
GACGGACTGGGACTTGGGACGTGCTAG | -1.03
GAAGGTCTCCTACTGCTGACGTGCTAG | 0.154
GACGGACTGGGACTGGGGAGGTGCTAG | -0.926
TCAATTCTCTACTTGTGACTGTGCTAG | 1.1
TCACAATTCTTTTTATGACTGTGCTAG | 0.772
TACAAATCCAGCCCTACAGAGTGCTAG | 0.303
GTAGGTATCGGTTTCGGTTAGTGCTAG | 7.02
TCAGTTTTCTTTTCCATTTTGTGCTAG | 6.35
TTATGTCTCCTTATCCTTTAGTGCTAG | 2.14
CAGCACATGCATCTCCCACAGTGCTAG | 0.586
GACGGCCTGGACACTGGGGACGTGCTA | -1.06
TTAGTTCTCCTTATCCTTTAGTGCTAG | 1.69
GACGGACTGCTTCCCCTGACGTGCTAG | 0.252
TTAGGACTGGATTTTCGGTTAGTGCTA | 3.71
GGAGCGCCAGGCCCCGGCAGGTGCTAG | -1.56
GACGGACTGGGTTTCCGGACGTGCTAG | -0.0297
TGTCTTTTCATTTTCTTTAAGTGCTAG | 3.18
TTTGGTCTCGGTATCGGTTAGTGCTAG | 1.63
TTAGGACTGGGGACTGGGGTAGTGCTA | -0.728
CACTATTTAAGACCTATGCACGTGCTA | 0.412
GACGGACTGGGGTTTCCGGACGTGCTA | -0.549
TTAGGCATCGGGACTGGGTTAGTGCTA | -0.883
GACGGTTTCGACTTTCCGGACGTGCTA | 7.72

Block 2
Target: Max dimerization protein 1, bHLH-zipper, MAX partner unstated (MXD1, Homo sapiens, UniProt Q05195, residues 56-136)
Technique: protein-binding microarray
Form: double-stranded DNA, one strand shown
Medium: in vitro
Concentration: not given
Setting: k-mer, scored over probes, only values ≥0.25
Direction: higher = stronger binding
Construct (chain): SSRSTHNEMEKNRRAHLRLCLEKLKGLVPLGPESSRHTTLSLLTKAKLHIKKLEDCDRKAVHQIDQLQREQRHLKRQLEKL
Sequence | E-score
ACCATGCC | 0.405
ACATGGAG | 0.348
AGCGCGTG | 0.36
ACGACGTG | 0.295
AGTACACG | 0.349
CATGAGGA | 0.403
CGGCATGC | 0.361
CACCATGC | 0.399
AGGCACAT | 0.255
CACGCGTA | 0.427
ATCCCCGC | 0.268
GCATTGCA | 0.256
ATGTGGGC | 0.318
CACGGTGC | 0.314
CTCATGGC | 0.371
ACGAGGGC | 0.274
CGCACGAG | 0.403
AACGTGTG | 0.409
ATGCACGG | 0.262
CTCCCCAC | 0.298
AGCACATG | 0.441
CATGACAC | 0.315
ACAACGTG | 0.417
GCGCGCGC | 0.292

Block 3
Target: Ras GTPase-activating protein-binding protein 1, full length (G3BP1, Homo sapiens, UniProt Q13283)
UniProt Q13283, sequence (whole entry, looked up): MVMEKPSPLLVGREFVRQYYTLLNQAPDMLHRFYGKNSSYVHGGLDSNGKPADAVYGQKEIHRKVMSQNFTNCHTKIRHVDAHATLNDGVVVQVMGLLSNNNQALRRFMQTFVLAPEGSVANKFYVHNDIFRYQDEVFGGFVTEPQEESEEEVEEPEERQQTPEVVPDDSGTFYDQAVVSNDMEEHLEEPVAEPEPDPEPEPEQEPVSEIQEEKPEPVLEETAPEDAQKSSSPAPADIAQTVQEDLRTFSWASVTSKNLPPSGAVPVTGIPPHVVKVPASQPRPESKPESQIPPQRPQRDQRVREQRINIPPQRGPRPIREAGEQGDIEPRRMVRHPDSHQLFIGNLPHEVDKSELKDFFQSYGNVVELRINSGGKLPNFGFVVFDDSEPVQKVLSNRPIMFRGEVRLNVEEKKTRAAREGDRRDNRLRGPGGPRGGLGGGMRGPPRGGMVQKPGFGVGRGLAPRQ
Technique: RNA Bind-n-Seq
Form: RNA
Medium: in vitro
Concentration: 200 nM
Setting: whole 134-nt RNA, ends assumed
Added: 150 mM LiCl
Reference: input library
Direction: higher = stronger binding
Library: 7-deaza-guanosine replaces G
Constant ends, left off below: GGGAGUUCUACAGUCCGACGAUC … UGGAAUUCUCGGGUGUCAAGG
Sequence | log2 enrichment
UCAAGUCCUGUGCUACACAUCGUAUGUACCGAAUCGGAAAAAGGAAAGGUUUGGAAAGUAUUAUGUUACGCCGUUCGGAUCUGCACUUCC | -1.08
UGGCCCUGGUGGCAUGCGGGGAGGAAGAGGUGGCCUCAUGGAUCGUGGUGGUCCCGGUCGAAUGUUCAGAGGUGGCCGUGGUGGAGACAG | 0.0548
CAAGUCCUGUGCUACACAUCGUAUGUACCGAAUCGGGAAAGGGUUUGGGAAAGGGAAAGUAUUAUGUUACGCCGUUCGGAUCUGCACUUC | -0.397
GUCCUGUGCUACACAUCGUAUGUACCGAAUCGGUUUUUUUGGAAAAAAAGGAAAAAGGAAAGUAUUAUGUUACGCCGUUCGGAUCUGCAC | -2.15
CAAGUCCUGUGCUACACAUCGUAUGUACCGAAUCGGAAAGGAAAAAGGUUUUUGGAAAGUAUUAUGUUACGCCGUUCGGAUCUGCACUUC | -1.23
ACCAUGCAGGUGGGCAUCUUUGGGAAGUGGGGCAAGGGGGGGAUAGGGAGGGGGAAAACACUUUGGGAACAGGUGGUCCCAGGUCGUUUC | 0.366
CACAGACAACACGCACCCACACAGACACAGAGGGAAGGGGUUGGGAUGGGGUCAGGGUGCACAGCAGGGCGGGGUAGGACCCCAGCCCCU | -0.112
UGGUUAGUCAACUACUUUGGUUCCUUAUCAGUAGAAGACUCCCUAGAAUGUCUCAGAGCCAUGCUGUCUGCCAACAUCCGUCAGAAUCUG | -0.345
AAGUCCUGUGCUACACAUCGUAUGUACCGAAUCGGGGUUUGGGGAAAGGGGUGGGGAAAGUAUUAUGUUACGCCGUUCGGAUCUGCACUU | -0.464
UGGCCCUGGUGGCAUGCGGGGAGGAAGAGGUGGCCGCAUGGAUCGUGGUGGUCCCGGUGGAAUGUUCAGAGGUGGCCGUGGUGGAGACAG | 0.781
UCAAGUCCUGUGCUACACAUCGUAUGUACCGAAUCGGUUUGGAGGUUUUUUUGGAAAGUAUUAUGUUACGCCGUUCGGAUCUGCACUUCC | 0.206

Block 4
Target: Histone acetyltransferase KAT6A, winged helix 1, GST fusion (KAT6A, Homo sapiens, UniProt Q92794, residues 1-85)
Technique: protein binding microarray
Form: double-stranded DNA, one strand shown
Medium: in vitro
Concentration: not given
Setting: 8-mer, flanks averaged, mean of 2 arrays, mostly near background
Reference: not given
Direction: higher = stronger binding
Target sequence (chain): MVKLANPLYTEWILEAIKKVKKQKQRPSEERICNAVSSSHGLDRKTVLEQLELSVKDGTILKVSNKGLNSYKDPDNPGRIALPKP
Sequence | E-score
AATTGTGT | -0.158
CGGTGGGA | 0.0705
TCTAACCA | -0.239
CCACACAA | -0.268
AATAAGAC | -0.214
GAACTATA | 0.039
ATTTCCGG | 0.162
GACCGAAC | -0.0169
CCTCCATA | -0.00037
CCCGAGGC | 0.248
CATGGCAA | -0.0432
ACGTTGCA | -0.25
CGCAGATA | 0.00596
GGGCCCAC | 0.0453
ACGTCTCT | -0.0365
AAATCTAA | -0.211
AAGACAGA | -0.0599
CCCGAAAA | -0.0442
CCTGTTCG | -0.0565
AAATGCGA | -0.00855
CGACATAC | 0.146
CAGTCAAA | -0.106
GAACTCAA | -0.252
AGAATACC | -0.0547
AAAGTGTC | -0.0887

Some of these lines once more (block 4):
Sequence | E-score
AATTGTGT | -0.158
CGGTGGGA | 0.0705
TCTAACCA | -0.239
CCACACAA | -0.268
AATAAGAC | -0.214
GAACTATA | 0.039
ATTTCCGG | 0.162
